Literature values, collected from citations in different studies.
Each numbered part shows a few of the values that one paper quotes. Values joined by “and” are separate records of one study, mostly repeats; a detail may differ. Numbers after ± are the reported error. Values after ≈ are worked out from the molar mass of the structure shown.
UniProt Q9NWT6, sequence (whole entry, looked up): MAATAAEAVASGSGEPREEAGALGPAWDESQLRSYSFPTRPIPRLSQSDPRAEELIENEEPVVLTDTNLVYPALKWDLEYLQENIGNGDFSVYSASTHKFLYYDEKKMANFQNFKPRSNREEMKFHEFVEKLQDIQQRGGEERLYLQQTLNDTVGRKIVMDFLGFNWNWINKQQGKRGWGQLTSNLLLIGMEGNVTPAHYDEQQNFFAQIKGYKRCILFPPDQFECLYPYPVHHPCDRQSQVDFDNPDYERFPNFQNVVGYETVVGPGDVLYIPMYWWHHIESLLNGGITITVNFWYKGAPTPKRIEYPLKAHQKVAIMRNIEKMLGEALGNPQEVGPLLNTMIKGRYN

Sample 1
Target: dopamine transporter
Measurement: IC50
Structure (SMILES) = CCN(CCO)CCCC(C)Nc1ccnc2cc(Cl)ccc12 (centres unmarked); result = > 10 µM
Structure (SMILES) = CC1=C(/C=C/C(C)=C/C=C/C(C)=C\C(=O)O)C(C)(C)CCC1; result = > 10 µM
Structure (SMILES) = CN(C)CCC=C1c2ccccc2CCc2ccccc21; result = 6.2 µM

Sample 2
Organism: Cryptosporidium parvum
Technique: high-throughput screen
Tested at: concentration not given
Measurement: activity
SMILES = CN1[C@@H]2CC[C@H]1C[C@@H](OC(c1ccccc1)c1ccccc1)C2.CS(=O)(=O)O; result = inactive
SMILES = COc1cc(N)c(Cl)cc1C(=O)NC1CCN(CCCOc2ccc(F)cc2)CC1OC.O (centres unmarked); result = inactive
SMILES = CCN1CCN(c2cc3c(cc2F)c(=O)c(C(=O)O)cn3C2CC2)CC1; result = inactive
SMILES = CO[C@H]1/C=C/O[C@@]2(C)Oc3c(C)c(O)c4c(O)c(c(/C=N/N5CCN(C)CC5)c(O)c4c3C2=O)NC(=O)/C(C)=C\C=C\[C@H](C)[C@H](O)[C@@H](C)[C@@H](O)[C@@H](C)[C@H](OC(C)=O)[C@@H]1C; result = inactive
SMILES = CN1CCN(c2nc3cc(C(F)(F)F)ccc3n3cccc23)CC1; result = inactive
SMILES = COc1ccc([C@@H]2Sc3ccccc3N(CCN(C)C)C(=O)[C@@H]2OC(C)=O)cc1; result = inactive
SMILES = CO/N=C(\C(=O)N[C@@H]1C(=O)N2C(C(=O)O)=C(COC(N)=O)CS[C@H]12)c1ccco1; result = inactive
SMILES = Nc1nc(N)nc(-c2cc(Cl)ccc2Cl)n1; result = inactive
SMILES = CC(C)C[C@H](NC(=O)[C@@H](COC(C)(C)C)NC(=O)[C@H](Cc1ccc(O)cc1)NC(=O)[C@H](CO)NC(=O)[C@H](Cc1c[nH]c2ccccc12)NC(=O)[C@H](Cc1cnc[nH]1)NC(=O)[C@@H]1CCC(=O)N1)C(=O)N[C@@H](CCCNC(=N)N)C(=O)N1CCC[C@H]1C(=O)NNC(N)=O; result = inactive
SMILES = CN1C(C(=O)Nc2ccccn2)=C(O)c2ccccc2S1(=O)=O.O; result = inactive
SMILES = Cc1cn([C@H]2C[C@H](N=[N+]=[N-])[C@@H](CO)O2)c(=O)[nH]c1=O; result = inactive
SMILES = O=C(O)c1cc(/N=N/c2ccc(S(=O)(=O)Nc3ccccn3)cc2)ccc1O; result = inactive
SMILES = Cc1c(C(=O)NN2CCCCC2)nn(-c2ccc(Cl)cc2Cl)c1-c1ccc(I)cc1; result = inactive
SMILES = CC(C)(C(=O)O)c1ccc(C(O)CCCN2CCC(C(O)(c3ccccc3)c3ccccc3)CC2)cc1 (centres unmarked); result = inactive
SMILES = O=C(O)c1cc2ccccc2c(Cc2c(O)c(C(=O)O)cc3ccccc23)c1O.OCCOCCN1CCN(C(c2ccccc2)c2ccc(Cl)cc2)CC1; result = inactive
SMILES = Cl.NC[C@H](O)c1ccc(O)c(O)c1; result = inactive
SMILES = CC#C[C@]1(O)CC[C@H]2[C@@H]3CCC4=CC(=O)CCC4=C3[C@@H](c3ccc(N(C)C)cc3)C[C@@]21C; result = inactive
SMILES = COC(=O)Nc1nc2cc(C(=O)c3ccc(F)cc3)ccc2[nH]1; result = inactive
SMILES = CC(C(=O)O)c1cccc(C(=O)c2ccccc2)c1 (centres unmarked); result = inactive
SMILES = CCOc1ccc2ccccc2c1C(=O)N[C@@H]1C(=O)N2[C@@H]1SC(C)(C)[C@@H]2C(=O)O; result = inactive
SMILES = OC[C@H]1O[C@@H](n2cnc3c(NC4CCCC4)nc(Cl)nc32)[C@H](O)[C@@H]1O; result = inactive
SMILES = C#C[C@]1(O)CC[C@H]2[C@@H]3CCC4=Cc5oncc5C[C@]4(C)[C@H]3CC[C@@]21C; result = inactive
SMILES = C[C@@H](O)[C@H]1C(=O)N2C(C(=O)O)=C(S[C@@H]3CN[C@H](C(=O)N(C)C)C3)[C@H](C)[C@H]12; result = inactive
SMILES = CO[C@H]1/C=C/O[C@@]2(C)Oc3c(C)c(O)c4c(c3C2=O)C2=NC3(CCN(CC(C)C)CC3)NC2=C(NC(=O)/C(C)=C\C=C\[C@H](C)[C@H](O)[C@@H](C)[C@@H](O)[C@@H](C)[C@H](OC(C)=O)[C@@H]1C)C4=O; result = inactive
SMILES = CC1=C(C/C=C(\C)CCC[C@H](C)CCC[C@H](C)CCCC(C)C)C(=O)c2ccccc2C1=O; result = inactive

Sample 3
Structure (SMILES): CN(C)CC/C=C1/c2ccccc2Sc2ccc(Cl)cc21
Cell line: MCF7
Technique: microarray
Tested at: concentration not given
Relative to: DMSO
Measurement: log2 fold change
measured = SQLE mRNA; result = 1.93
measured = TSC22D3 mRNA; result = 2.36
measured = TNFAIP3 mRNA; result = 3.47

Further values, each from its own experiment
Structure (SMILES) = Nc1ccc(C(=O)N[C@@H](CCC(=O)O)C(=O)O)cc1; target or system = Escherichia coli dihydrofolate reductase; measurement = Ki; result = 1800 ± 100 µM
Structure (SMILES) = CCc1cc(/C(C)=N/OCc2ccc(C3CCCCC3)c(C(F)(F)F)c2)ccc1CN1CC(C(=O)O)C1; test = population PK; test system = human, CYP2C9*3/*3; measurement = clearance; result = 0.811 L/h
Structure (SMILES) = CC1CS(=O)(=O)CCN1/N=C/c1ccc([N+](=O)[O-])o1 (centres unmarked); target or system = Trypanosoma cruzi; test system = CL Brener; setting = trypomastigotes; measurement = IC50; result = 20.1 ± 2.9 µM
Structure (SMILES) = O=C(C1CCCCC1)N1CC(=O)N2CCc3ccccc3C2C1 (centres unmarked); target or system = Schistosoma mansoni; test system = juvenile worms, mouse; setting = dose not given; measurement = activity against juvenile worms; result = inactive
Structure (SMILES) = CCOCCn1cc(C(=O)Nc2ccc(-n3nc(-c4cccnc4)cc3C(F)(F)F)cn2)ccc1=O; target or system = EPHX2; test = cellular activity; measurement = IC50; result = < 0.001 µM
Structure (SMILES) = CC1(C)NC(=O)N(c2ccc(F)c(C(C)(F)F)c2)C1=O; target or system = Schistosoma mansoni; test system = juvenile, infected mice; setting = oral, 100 mg/kg single dose; measurement = worm burden reduction; result = 89% and 62 to 100%
Structure (SMILES) = N[C@@H]1c2cccnc2[C@H](OC(=O)N2CCC(n3c(=O)[nH]c4ncccc43)CC2)CC[C@H]1c1cccc(F)c1F; target or system = UGT1A1 (human); test = enzyme activity, inhibitor; test system = human liver microsomes; measurement = IC50; result = > 50 µM
Structure (SMILES) = C1=C/COCc2cc(ccc2OCCN2CCCC2)Nc2nccc(n2)-c2cccc(c2)COC/1; test system = human; setting = dose not given, together with: clarithromycin; how to read = relative to: without clarithromycin; measurement = AUC(0-inf) increase; result = 80%
Structure (SMILES) = CCC[C@@H]1C[C@@H](C(=O)N[C@@H]([C@H]2O[C@H](SC)[C@H](O)[C@@H](O)[C@H]2O)[C@@H](C)O)N(C)C1; target or system = Staphylococcus aureus; measurement = MIC; result = 1 µg/mL (≈ 2.46 µM)
Structure (SMILES) = c1cnc2c(c1)ccc1cccnc12; target or system = MCF7; test = cell growth; measurement = IC50; result = 6.1 ± 0.5 µM
Structure (SMILES) = CC(C)NCC(O)COc1cccc2ccccc12 (centres unmarked); test system = human; setting = oral; measurement = oral bioavailability; result = ~90%
Structure (SMILES) = O=C(C1CCCCC1)N1CC(=O)N2CCc3ccccc3C2C1 (centres unmarked); target or system = Schistosoma mansoni; test system = adult, infected mice; setting = oral, 1 × 100 mg/kg; measurement = worm burden reduction; result = 18%
Structure (SMILES) = N=C(N)NC(=N)NCCc1ccccc1; target or system = Escherichia coli dihydrofolate reductase; measurement = Ki; result = 170 ± 30 µM
Structure (SMILES) = Nc1nc2c(ncn2COCCO)c(=O)[nH]1; test system = water; setting = 2; measurement = solubility; result = 1600 µg/mL (≈ 7100 µM)
Structure (SMILES) = c1ccc2c(c1)ccc1ccccc12; test = metabolism, substrate; test system = human liver microsomes; measurement = Km; result = 0.51 µM
Structure (SMILES) = N#Cc1ccc(Nc2ccc3[nH]c(=O)[nH]c3c2)c(Cl)c1; target or system = BCL6 (human); test = biochemical; measurement = IC50; result = 110 µM
Structure (SMILES) = O=C(O)CNC(=O)c1nc(Cl)c2ccccc2c1O; target or system = HIF1AN (Homo sapiens, UniProt Q9NWT6); test = inhibitor; measurement = IC50; result = > 25 µM
Structure (SMILES) = Cc1cc(C)nc(NS(=O)(=O)c2ccc(N)cc2)n1; target or system = Staphylococcus aureus; measurement = MIC; result = 8 µg/mL (≈ 28.7 µM)
Structure (SMILES) = COc1cc(C(=O)O)ncc1C#Cc1ccccc1NS(=O)(=O)c1cccc2c(N(C)C)ccnc12; target or system = SLC16A3 (human); test = cellular activity; measurement = IC50; result = 0.506 µM
